Results of several laboratories.
Every numbered part comes from another study and shows a few of its results, in no order.

Set 1
Target: Centromere-binding protein 1, full length, His-tagged (CBF1, Saccharomyces cerevisiae, UniProt P17106, residues 1-351)
Chain of UniProt P17106 (whole entry, looked up): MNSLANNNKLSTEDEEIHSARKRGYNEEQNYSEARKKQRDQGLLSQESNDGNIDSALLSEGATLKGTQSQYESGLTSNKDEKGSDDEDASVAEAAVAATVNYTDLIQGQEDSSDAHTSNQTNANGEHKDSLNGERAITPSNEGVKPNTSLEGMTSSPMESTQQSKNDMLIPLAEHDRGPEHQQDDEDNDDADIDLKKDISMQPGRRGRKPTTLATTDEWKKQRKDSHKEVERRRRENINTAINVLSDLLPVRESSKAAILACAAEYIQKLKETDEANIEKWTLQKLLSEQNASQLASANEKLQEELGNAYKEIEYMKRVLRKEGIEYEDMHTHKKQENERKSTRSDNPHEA
Method: competition protein-binding microarray
Form: double-stranded DNA, one strand shown
Medium: in vitro
Tested at: 2 µM
Setting: whole 60-bp probe, lowest competitor level
Added: Pho4 competitor, 0.05 µM
Reading: higher = stronger binding
The fluorescence intensity of `TGCGCAACAACTTTTCACGTGCTATTATGTCTAGAAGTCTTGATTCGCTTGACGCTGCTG` is reported as 1570 a.u.
With `AGTCTCTTCGGGAAGTACATGACAGGGTGGTATATAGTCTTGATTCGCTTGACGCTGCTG` the fluorescence intensity was 76.8 a.u.
`CCGCCGCTGCTTTTGCACGTGAGTCCCGCGGATTTTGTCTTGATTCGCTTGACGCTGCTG` gave a fluorescence intensity of 1540 a.u.
For `TGGTCTTTGAACAAGATCATGCCATTCTGGGCTGGCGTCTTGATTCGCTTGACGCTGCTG`, the fluorescence intensity was 72.9 a.u.
With `CTAACGAAGGTTTGATTGGTGGGTGACAAGCCAAGTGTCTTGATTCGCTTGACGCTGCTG` the fluorescence intensity was 94.1 a.u.
`GTCAAGAACGGTGTCCACATGGTCTTCGCTTCTTTCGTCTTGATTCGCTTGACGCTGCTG` gave a fluorescence intensity of 107 a.u.
`GTCTTGTCTCATTGTTTAGTGGGTGTCCCCACTTCAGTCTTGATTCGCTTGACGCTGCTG` gave a fluorescence intensity of 80.1 a.u.
With `TGCGCAACAACTTATCACGTGTTTTTATGTCTAGAAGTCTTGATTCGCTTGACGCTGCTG` the fluorescence intensity was 6290 a.u.

Set 2
Target: Histone acetyltransferase KAT6A, both winged helices, GST fusion (KAT6A, Homo sapiens, UniProt Q92794, residues 1-181)
Method: protein binding microarray
Form: double-stranded DNA, one strand shown
Medium: in vitro
Tested at: not given
Setting: 8-mer, flanks averaged, mean of 2 arrays, mostly near background
Relative to: not given
Reading: higher = stronger binding
Target sequence (chain): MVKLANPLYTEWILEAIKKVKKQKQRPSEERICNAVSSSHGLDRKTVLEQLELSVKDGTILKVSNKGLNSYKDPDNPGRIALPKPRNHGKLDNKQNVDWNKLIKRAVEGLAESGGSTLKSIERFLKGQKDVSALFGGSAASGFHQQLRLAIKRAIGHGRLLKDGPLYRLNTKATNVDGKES
For `ATTTATCC`, the E-score was 0.0406.
The E-score of `GAGCTCGC` is reported as 0.0921.
`TAACTACA` gave an E-score of -0.0694.
The E-score of `ACGCTGAG` is reported as 0.101.
`CCAAATCC` has an E-score of -0.196.
`ACTATAAT` gave an E-score of -0.0477.
With `CTGTTGTA` the E-score was 0.136.
For `AGAGATGA`, the E-score was -0.131.

Set 3
Target: Sal-like protein 4, full length isoform A (SALL4, Homo sapiens, UniProt Q9UJQ4, residues 1-1053)
Chain of UniProt Q9UJQ4 (whole entry, looked up): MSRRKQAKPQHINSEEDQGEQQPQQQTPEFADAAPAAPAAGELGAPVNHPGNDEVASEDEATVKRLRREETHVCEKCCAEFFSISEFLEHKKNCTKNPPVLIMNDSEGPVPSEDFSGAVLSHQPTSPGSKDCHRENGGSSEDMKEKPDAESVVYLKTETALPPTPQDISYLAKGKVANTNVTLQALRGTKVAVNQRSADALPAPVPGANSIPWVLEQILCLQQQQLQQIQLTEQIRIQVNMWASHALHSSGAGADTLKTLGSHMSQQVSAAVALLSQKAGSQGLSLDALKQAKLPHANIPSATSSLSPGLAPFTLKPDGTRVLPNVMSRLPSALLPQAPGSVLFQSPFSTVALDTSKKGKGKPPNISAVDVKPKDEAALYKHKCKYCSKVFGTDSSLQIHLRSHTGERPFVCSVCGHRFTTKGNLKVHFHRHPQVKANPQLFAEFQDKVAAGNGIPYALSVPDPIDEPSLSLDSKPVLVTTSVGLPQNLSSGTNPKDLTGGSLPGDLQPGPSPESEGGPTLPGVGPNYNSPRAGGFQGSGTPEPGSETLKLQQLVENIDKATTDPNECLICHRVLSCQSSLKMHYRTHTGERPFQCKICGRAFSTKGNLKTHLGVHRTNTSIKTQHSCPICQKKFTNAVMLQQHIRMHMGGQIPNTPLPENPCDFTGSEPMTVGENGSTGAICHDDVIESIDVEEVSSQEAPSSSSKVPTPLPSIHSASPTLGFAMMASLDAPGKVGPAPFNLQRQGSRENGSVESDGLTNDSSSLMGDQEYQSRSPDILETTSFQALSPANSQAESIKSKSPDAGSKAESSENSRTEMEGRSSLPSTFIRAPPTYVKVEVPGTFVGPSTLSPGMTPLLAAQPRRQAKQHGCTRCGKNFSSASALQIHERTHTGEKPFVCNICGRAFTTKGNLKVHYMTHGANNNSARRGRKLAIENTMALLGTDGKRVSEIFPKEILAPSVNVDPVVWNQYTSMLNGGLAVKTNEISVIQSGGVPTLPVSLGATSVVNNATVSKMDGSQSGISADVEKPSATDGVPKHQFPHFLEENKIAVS
Method: universal PBM
Form: double-stranded DNA, one strand shown
Medium: in vitro
Tested at: 600 nM
Setting: 8-mer, flanks averaged, mean of replicates
Reading: higher = stronger binding
With `ACGGGGAC` the E-score was -0.335.
`CAGATAGG` has an E-score of 0.00842.
`ATTGATTG` has an E-score of 0.257.
`GCTGCCCC` has an E-score of -0.382.
With `ACCTTGGG` the E-score was -0.0919.
`GAGACGGC` has an E-score of -0.256.
With `AACATGAG` the E-score was 0.152.
`CACCGAAC` gave an E-score of -0.192.

Further values, each from its own experiment
`PhoQ, residues 284 288 289 292 302 303 AEGLLW` gave a fold induction of 15.8 (PhoP, residues 12 14 15 18 19 LHHSG (Escherichia coli, UniProt P23836); Sort-seq, refers to: YFP reporter; E. coli; PhoQ-PhoP variant library, added: 10 µM Mg2+; relative to: high Mg2+ state, higher = stronger signaling).
